Measurements collected from several papers.
Numbered parts are unrelated; each lists some results of a single study. “And” joins repeats or separate records; there may be more than shown.
Sequence of UniProt Q9UQB9 (whole entry, looked up): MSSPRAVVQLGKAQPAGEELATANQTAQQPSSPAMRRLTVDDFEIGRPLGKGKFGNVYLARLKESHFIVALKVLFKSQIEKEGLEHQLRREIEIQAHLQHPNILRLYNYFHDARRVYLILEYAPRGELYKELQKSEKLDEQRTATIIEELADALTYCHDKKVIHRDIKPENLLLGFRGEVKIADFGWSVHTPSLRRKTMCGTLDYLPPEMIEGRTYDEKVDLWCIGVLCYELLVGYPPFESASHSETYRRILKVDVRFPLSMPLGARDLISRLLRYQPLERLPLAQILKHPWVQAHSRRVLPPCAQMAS
Sequence of UniProt O14976 (whole entry, looked up): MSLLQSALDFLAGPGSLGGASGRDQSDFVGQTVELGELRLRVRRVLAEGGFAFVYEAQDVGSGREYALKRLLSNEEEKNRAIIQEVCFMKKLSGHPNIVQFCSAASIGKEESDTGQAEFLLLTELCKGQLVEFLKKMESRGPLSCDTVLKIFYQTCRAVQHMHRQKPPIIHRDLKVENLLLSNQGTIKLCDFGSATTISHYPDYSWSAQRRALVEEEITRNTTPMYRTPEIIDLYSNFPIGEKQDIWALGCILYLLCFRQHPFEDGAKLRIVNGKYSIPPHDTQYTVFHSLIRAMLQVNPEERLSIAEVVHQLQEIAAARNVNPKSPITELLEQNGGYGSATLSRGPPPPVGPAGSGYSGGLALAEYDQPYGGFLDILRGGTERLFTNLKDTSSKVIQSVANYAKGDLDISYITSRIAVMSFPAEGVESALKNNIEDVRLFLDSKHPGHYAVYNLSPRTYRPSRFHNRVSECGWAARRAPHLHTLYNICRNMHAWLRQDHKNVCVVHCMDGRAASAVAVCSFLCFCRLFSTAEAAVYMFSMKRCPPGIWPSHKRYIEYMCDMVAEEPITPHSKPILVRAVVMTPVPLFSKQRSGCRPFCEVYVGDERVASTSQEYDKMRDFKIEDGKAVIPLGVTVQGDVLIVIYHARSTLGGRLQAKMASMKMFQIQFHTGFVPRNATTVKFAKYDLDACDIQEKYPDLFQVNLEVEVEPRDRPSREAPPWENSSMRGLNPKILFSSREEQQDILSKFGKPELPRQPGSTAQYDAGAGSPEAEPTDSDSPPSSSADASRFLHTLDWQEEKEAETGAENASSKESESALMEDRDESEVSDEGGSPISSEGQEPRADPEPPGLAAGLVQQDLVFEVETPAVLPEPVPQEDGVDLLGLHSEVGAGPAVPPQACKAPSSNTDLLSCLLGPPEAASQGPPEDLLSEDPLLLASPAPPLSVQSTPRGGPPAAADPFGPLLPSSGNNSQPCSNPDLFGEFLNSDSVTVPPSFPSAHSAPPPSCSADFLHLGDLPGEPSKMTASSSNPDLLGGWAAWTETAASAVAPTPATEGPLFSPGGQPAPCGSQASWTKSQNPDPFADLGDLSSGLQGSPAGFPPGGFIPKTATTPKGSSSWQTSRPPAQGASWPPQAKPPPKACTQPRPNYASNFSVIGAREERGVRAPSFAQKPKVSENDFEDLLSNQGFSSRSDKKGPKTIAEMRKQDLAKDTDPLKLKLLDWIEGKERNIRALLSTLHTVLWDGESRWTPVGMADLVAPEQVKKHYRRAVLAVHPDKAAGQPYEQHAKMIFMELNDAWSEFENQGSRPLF
Sequence of UniProt P04629 (whole entry, looked up): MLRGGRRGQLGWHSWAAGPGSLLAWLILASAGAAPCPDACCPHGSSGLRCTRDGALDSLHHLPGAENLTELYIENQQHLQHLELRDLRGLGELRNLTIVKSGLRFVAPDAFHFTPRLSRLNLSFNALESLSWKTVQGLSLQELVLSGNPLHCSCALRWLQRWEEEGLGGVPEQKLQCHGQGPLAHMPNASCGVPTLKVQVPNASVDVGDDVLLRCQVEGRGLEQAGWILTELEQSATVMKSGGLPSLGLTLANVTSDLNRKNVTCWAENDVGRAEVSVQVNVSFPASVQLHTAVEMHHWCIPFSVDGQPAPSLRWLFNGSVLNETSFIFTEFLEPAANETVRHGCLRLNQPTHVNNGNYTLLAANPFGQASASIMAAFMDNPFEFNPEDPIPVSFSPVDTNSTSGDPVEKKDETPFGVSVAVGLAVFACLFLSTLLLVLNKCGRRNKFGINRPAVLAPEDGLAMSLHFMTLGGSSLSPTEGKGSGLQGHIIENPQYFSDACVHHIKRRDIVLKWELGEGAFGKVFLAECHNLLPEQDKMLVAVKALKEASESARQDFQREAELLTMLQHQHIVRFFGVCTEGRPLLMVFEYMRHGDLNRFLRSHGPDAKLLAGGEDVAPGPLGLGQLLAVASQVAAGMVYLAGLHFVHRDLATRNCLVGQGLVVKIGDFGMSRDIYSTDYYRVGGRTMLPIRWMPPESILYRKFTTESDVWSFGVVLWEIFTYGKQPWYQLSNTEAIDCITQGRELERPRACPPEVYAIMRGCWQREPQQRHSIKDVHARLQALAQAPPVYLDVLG
Sequence of UniProt Q06187 (whole entry, looked up): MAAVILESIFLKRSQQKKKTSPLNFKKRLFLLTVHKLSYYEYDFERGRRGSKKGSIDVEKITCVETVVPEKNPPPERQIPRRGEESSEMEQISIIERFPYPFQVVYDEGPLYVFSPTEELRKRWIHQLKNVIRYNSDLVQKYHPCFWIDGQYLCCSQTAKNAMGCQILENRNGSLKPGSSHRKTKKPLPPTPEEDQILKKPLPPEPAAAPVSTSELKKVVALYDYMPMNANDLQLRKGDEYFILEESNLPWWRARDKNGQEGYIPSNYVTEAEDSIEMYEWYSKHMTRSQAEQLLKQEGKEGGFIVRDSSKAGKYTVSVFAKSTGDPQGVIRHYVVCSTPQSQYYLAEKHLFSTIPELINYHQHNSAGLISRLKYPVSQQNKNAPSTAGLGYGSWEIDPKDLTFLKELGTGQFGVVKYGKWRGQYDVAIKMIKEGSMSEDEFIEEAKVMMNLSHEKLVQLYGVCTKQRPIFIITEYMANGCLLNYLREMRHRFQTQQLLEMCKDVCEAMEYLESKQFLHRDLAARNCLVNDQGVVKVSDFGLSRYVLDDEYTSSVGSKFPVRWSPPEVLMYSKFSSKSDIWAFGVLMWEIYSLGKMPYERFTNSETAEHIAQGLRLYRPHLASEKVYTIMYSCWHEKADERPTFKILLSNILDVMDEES

Block 1 — action: competitor; technique: scintillation proximity
Structure (SMILES): COc1cc(C(=O)OCCCN2CCCN(CCCOC(=O)c3cc(OC)c(OC)c(OCc4ccc([N+](=O)[O-])cc4)c3)CC2)cc(OC)c1OC
Target: Equilibrative nucleoside transporter 1 (SLC29A1, Homo sapiens, UniProt Q99808, del243-274/L168F/N288K/P175A)
Sequence of UniProt Q99808 (whole entry, unmodified, looked up): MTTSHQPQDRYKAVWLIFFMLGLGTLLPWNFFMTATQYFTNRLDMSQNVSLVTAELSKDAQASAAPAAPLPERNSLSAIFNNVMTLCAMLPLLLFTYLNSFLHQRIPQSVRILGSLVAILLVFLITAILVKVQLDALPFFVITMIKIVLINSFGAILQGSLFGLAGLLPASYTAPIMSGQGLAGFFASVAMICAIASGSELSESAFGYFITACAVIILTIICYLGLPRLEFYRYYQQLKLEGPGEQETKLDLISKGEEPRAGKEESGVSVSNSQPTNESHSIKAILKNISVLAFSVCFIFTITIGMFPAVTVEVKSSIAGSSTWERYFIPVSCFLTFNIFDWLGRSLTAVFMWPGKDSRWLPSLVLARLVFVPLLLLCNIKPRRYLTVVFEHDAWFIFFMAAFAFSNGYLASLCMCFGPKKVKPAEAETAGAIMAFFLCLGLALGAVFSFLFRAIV
setting | [3H]NBMPR binding
0.6238 nM | 90.6% and 107% and 102%
21850 nM | -1.26% and 1.07% and -0.477% and 0.193% and -0.311% and 0.789%
38.98 nM | 93% and 60.9% and 57.6% and 70.2% and 71.2% and 58.5%
2204.72 nM | 6.62% and 8.01% and 7.87% and 7.4% and 7.32% and 10.8%
9.314 nM | 86.4% and 106% and 80.5% and 93.3% and 94.3% and 82.1%

Block 2 — cell line: U-87 MG; concentration: concentration not given; relative to: DMSO
Structure (SMILES): CCN1/C(=C/C=C2\CCCC(/C=C/C3=[N+](CC)c4ccccc4C3(C)C)=C2NCCCCCCCCN2CCC(Nc3nc4ccccc4n3Cc3ccc(F)cc3)CC2)C(C)(C)c2ccccc21
assay | log2 fold change
measured: CHIC2 mRNA | 1.09
measured: SMIM21 mRNA | -2.51
measured: EIF1B mRNA | 0.922
measured: SLC39A10 mRNA | -2.03
measured: TMEM268 mRNA | 1.45
measured: PADI1 mRNA | -6.49
measured: FLYWCH1 mRNA | 1.37
measured: USP6 mRNA | -1.59
measured: HK2 mRNA | 1.72
measured: ESM1 mRNA | 3.86
measured: CAV1 mRNA | -1.79
measured: LDHA mRNA | -1.12
measured: GOLIM4 mRNA | -0.828
measured: PLS1 mRNA | 1.44
measured: INPP5A mRNA | 1.6
measured: CALML4 mRNA | -1.61

Block 3 — observed: thermal unfolding; technique: differential scanning fluorimetry; concentration: 5.5 µM; direction: higher = more unfolded
SMILES: C[C@@H]1CN(c2ccc(-c3cc(C(=O)NCCOCCOCCOCCOCCNC(=O)Cn4cc(-c5[nH]cc(C(=O)N[C@@H](CC(N)=O)c6ccc(F)c(Cl)c6)c5-c5ccc(Cl)cc5F)cn4)ccc3F)cc2NC(=O)c2c[nH]c(=O)cc2C(F)(F)F)C[C@H](C)N1C
DCAF1: DDB1- and CUL4-associated factor 1 (DCAF1, Homo sapiens, UniProt Q9Y4B6)
Sequence of UniProt Q9Y4B6 (whole entry, looked up): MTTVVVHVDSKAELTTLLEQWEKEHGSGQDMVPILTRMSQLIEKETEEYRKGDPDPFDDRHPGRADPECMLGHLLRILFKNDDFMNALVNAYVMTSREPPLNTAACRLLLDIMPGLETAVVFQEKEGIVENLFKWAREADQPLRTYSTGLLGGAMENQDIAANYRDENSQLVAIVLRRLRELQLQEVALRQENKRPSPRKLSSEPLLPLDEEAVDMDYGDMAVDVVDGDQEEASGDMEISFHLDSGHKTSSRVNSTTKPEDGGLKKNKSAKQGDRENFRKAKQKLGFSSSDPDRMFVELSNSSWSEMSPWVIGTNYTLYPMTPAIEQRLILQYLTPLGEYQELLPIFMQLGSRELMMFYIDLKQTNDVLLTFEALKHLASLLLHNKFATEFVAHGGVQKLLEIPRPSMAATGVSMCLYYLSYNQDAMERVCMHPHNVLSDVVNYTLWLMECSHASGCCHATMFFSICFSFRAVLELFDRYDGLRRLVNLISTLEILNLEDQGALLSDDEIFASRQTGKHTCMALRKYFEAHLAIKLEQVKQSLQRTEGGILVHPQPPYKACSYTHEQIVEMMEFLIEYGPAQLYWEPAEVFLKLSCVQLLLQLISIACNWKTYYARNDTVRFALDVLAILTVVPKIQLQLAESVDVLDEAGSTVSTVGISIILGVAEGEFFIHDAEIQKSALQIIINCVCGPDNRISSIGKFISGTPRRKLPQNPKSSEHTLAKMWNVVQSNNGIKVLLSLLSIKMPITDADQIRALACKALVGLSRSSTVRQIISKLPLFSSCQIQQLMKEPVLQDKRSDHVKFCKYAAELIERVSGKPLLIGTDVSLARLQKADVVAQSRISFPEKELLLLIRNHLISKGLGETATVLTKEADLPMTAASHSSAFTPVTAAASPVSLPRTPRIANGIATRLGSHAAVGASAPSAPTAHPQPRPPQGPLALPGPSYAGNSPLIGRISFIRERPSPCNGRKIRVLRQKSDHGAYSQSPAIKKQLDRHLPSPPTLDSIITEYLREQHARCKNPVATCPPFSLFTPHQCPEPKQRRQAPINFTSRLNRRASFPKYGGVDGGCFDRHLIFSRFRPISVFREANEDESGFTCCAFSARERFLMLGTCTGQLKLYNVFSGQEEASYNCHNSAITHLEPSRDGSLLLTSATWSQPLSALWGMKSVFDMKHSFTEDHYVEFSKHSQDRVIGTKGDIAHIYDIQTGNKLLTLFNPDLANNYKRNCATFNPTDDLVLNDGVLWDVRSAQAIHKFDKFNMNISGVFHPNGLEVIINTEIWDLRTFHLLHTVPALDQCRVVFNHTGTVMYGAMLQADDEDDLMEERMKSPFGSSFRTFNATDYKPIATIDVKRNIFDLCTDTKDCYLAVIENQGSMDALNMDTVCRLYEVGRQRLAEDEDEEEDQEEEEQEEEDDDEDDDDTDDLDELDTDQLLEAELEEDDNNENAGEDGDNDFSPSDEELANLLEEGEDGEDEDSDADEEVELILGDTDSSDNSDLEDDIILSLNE
WDR5: WD repeat-containing protein 5 (WDR5, Homo sapiens, UniProt P61964)
target | setting | SYPRO Orange fluorescence [a.u.]
DCAF1 | 33.6 °C | 8500
DCAF1 | 35.6 °C | 9030
WDR5 | 82.61 °C | 32000
WDR5 | 54.41 °C | 13900
WDR5 | 40.4 °C | 14200
DCAF1 | 51.2 °C | 15300
DCAF1 | 49.4 °C | 14200
WDR5 | 56.01 °C | 13000
DCAF1 | 64.81 °C | 55600
WDR5 | 57.21 °C | 12400
DCAF1 | 88.61 °C | 36500

Block 4 — technique: NanoBRET; concentration: 1 µM
Compound: COc1cc(-c2nc3ccc(C(=O)NCCCN(C)C)cc3n2C2CCC2)cc(OC)c1OC
target | target occupancy [%]
FGFR1 (Homo sapiens, UniProt P11362) | -4.3
PTK2B (Homo sapiens, UniProt Q14289) | -8
MAPK8 (Homo sapiens, UniProt P45983) | -1.32
Cyclin-dependent kinase 9, with cyclin K (CDK9, Homo sapiens, UniProt P50750) | 2.43
BRAF (Homo sapiens, UniProt P15056, V600E) | -6.98
CSNK1A1L (Homo sapiens, UniProt Q8N752) | 2.72
RIPK2 (Homo sapiens, UniProt O43353) | 3.07
GAK (Homo sapiens, UniProt O14976) | 1.9
IKBKE (Homo sapiens, UniProt Q14164) | 0.36
Aurora kinase C (AURKC, Homo sapiens, UniProt Q9UQB9) | 2.85
TLK2 (Homo sapiens, UniProt Q86UE8) | -0.81
MUSK (Homo sapiens, UniProt O15146) | 4.21
MAP4K1 (Homo sapiens, UniProt Q92918) | 0.46
NUAK1 (Homo sapiens, UniProt O60285) | 1
Cyclin-dependent kinase 15, with cyclin Y (CDK15, Homo sapiens, UniProt Q96Q40) | 0.95
Aurora kinase A (AURKA, Homo sapiens, UniProt O14965) | 1
FES (Homo sapiens, UniProt P07332) | 1.29
CDK20 (Homo sapiens, UniProt Q8IZL9) | -1.04
MAP4K5 (Homo sapiens, UniProt Q9Y4K4) | -0.21
NTRK1 (Homo sapiens, UniProt P04629) | 1.71
MAP3K11 (Homo sapiens, UniProt Q16584) | 2.07
Cyclin-dependent kinase 2, with cyclin E1 (CDK2, Homo sapiens, UniProt P24941) | 0.67
BTK (Homo sapiens, UniProt Q06187) | -1.97
